Published values pooled from the literature.
Lines come from different studies, so protocols differ.

CO[C@H]1/C=C/O[C@@]2(C)Oc3c(C)c(O)c4c(c3C2=O)C2=NC3(CCN(CC(C)C)CC3)NC2=C(NC(=O)/C(C)=C\C=C\[C@H](C)[C@H](O)[C@@H](C)[C@@H](O)[C@@H](C)[C@H](OC(=O)c2cccnc2)[C@@H]1C)C4=O
volume of distribution (CD-1 mouse; 10 mg/kg, single dose): 1.6 L/kg

CN[C@H](CC(C)C)C(=O)N[C@H]1C(=O)N[C@@H](CC(N)=O)C(=O)N[C@H]2C(=N)N[C@H]3C(=O)N[C@H](C(=O)N[C@H](C(=O)NCCC[N+](C)(C)C)c4cc(O)cc(O)c4-c4cc3ccc4O)[C@H](O)c3ccc(c(Cl)c3)Oc3cc2cc(c3O[C@@H]2O[C@H](CO)[C@@H](O)[C@H](O)[C@H]2O[C@H]2C[C@](C)(NCc3ccc(-c4ccc(Cl)cc4)cc3)[C@H](O)[C@H](C)O2)Oc2ccc(cc2Cl)[C@H]1O
volume of distribution (mouse; intravenous, 50 mg/kg): 0.12 L/kg

Cc1ncsc1-c1ccc(CNC(=O)[C@@H]2C[C@@H](O)CN2C(=O)[C@@H](NC(=O)COCC(C)(COCCOCCOCCNC(=O)C[C@@H]2N=C(c3ccc(Cl)cc3)c3c(sc(C)c3C)-n3c(C)nnc32)COCCOCCOCCNC(=O)C[C@@H]2N=C(c3ccc(Cl)cc3)c3c(sc(C)c3C)-n3c(C)nnc32)C(C)(C)C)cc1
volume of distribution at steady state (C57BL/6 mouse male, plasma; intravenous, 5 mg/kg): 0.349 L/kg

O=[N][Fe]1([N]=O)[S](CCO)[Fe]([N]=O)([N]=O)[S]1CCO
volume of distribution (C57BL/6JNarl mouse, plasma; oral, dose not given): 0.32 L

COC1C=COC2(C)Oc3c(C)c(O)c4c(c3C2=O)C2=NC3(CCN(CC(C)C)CC3)NC2=C(NC(=O)C(C)=CC=CC(C)C(O)C(C)C(O)C(C)C(OC(=O)c2cccnc2)C1C)C4=O (centres unmarked)
volume of distribution (CD-1 mouse, female, plasma; intravenous, 5 mg/kg): 1.8 L/kg

Nc1ccc(-c2ccc(F)cc2)cc1NC(=O)C1CCOCC1
volume of distribution (C57BL/6 mouse, male, plasma; intraperitoneal, 10 mg/kg): 1.9 L/kg

COC1C=COC2(C)Oc3c(C)c(O)c4c(c3C2=O)C2=NC3(CCN(CC(C)C)CC3)NC2=C(NC(=O)C(C)=CC=CC(C)C(O)C(C)C(O)C(C)C(OC(=O)c2cncnc2)C1C)C4=O (centres unmarked)
volume of distribution (CD-1 mouse, female, plasma; intravenous, 5 mg/kg): 2.4 L/kg

CO[C@H]1/C=C/O[C@@]2(C)Oc3c(C)c(O)c4c(c3C2=O)C2=NC3(CCN(CC(C)C)CC3)NC2=C(NC(=O)/C(C)=C\C=C\[C@H](C)[C@H](O)[C@@H](C)[C@@H](O)[C@@H](C)[C@H](OC(=O)c2cccc(F)c2)[C@@H]1C)C4=O
volume of distribution (CD-1 mouse; 10 mg/kg, single dose): 1.9 L/kg

For quick reference, copied from above:
CO[C@H]1/C=C/O[C@@]2(C)Oc3c(C)c(O)c4c(c3C2=O)C2=NC3(CCN(CC(C)C)CC3)NC2=C(NC(=O)/C(C)=C\C=C\[C@H](C)[C@H](O)[C@@H](C)[C@@H](O)[C@@H](C)[C@H](OC(=O)c2cccc(F)c2)[C@@H]1C)C4=O
volume of distribution (CD-1 mouse; 10 mg/kg, single dose): 1.9 L/kg
